Experimental data of several laboratories.
Every numbered part comes from another study and shows a few of its results, in no order. Changes are numbered by the printed parent chain.

Set 1
Target: CCNF, cyclin fold, Cln2 fusion (human)
Technique: yeast growth competition, sequencing
Medium: yeast
Notes: strong parent motif
Relative to: not given
Direction: higher = stronger binding
Starting sequence: ORC1 docking peptide (human); PRARKRLELGNLG
Variant | normalised enrichment score
PRARKREELGNLG [L7E] | 0.979
PRARKRTELGNLG [L7T] | 0.775
PRARFRLELGNLG [K5F] | 1.19
PRARKRLEKGNLG [L9K] | 1.25
PRARKRPELGNLG [L7P] | -0.274
PRARKRLEVGNLG [L9V] | 1.74
PRARKRLELGQLG [N11Q] | 2.65
ERARKRLELGNLG [P1E] | 3.58
PRARKRLEIGNLG [L9I] | 2.08
PRARKRKELGNLG [L7K] | 1.92
PRARLRLELGNLG [K5L] | 1.23
PRARKRLECGNLG [L9C] | 1.78

Set 2
Target: UBE2I UBC core domain (UniProt P63279)
Technique: yeast two-hybrid
Medium: yeast
Notes: mostly zero background
Relative to: not given
Direction: higher = stronger interaction
B1: RNF182 RING domain (UniProt Q8N6D2); chain AESQASDELECKICYNRYNLKQRKPKVLECCHRVCAKCLYKIIDFGDSPQGVIVCPFCRFETCLPDDEV
B2: HLTF RING domain (UniProt Q14527); chain LILSSGSDEECAICLDSLTVPVITHCAHVFCKPCICQVIQNEQPHAKCPLCRNDIHEDNLLE
B3: ARIH2 RING domain (UniProt O95376); chain HVPTSHPPHHCAVCMQFVRKENLLSLACQHQFCRSCWEQHCSVLVKDGVGVGVSCMAQDCPLRTPEDFVF
B4: ZMYND11 RING domain (UniProt Q15326); chain DEIDWETENHDWYCFECHLPGEVLICDLCFRVYHSKCLSDEFRLRDSSSPWQCPVCRSIKKKNTNKQEM
B5: BFAR RING domain (UniProt Q9NZS9); chain GPQISVSEFSCHCCYDILVNPTTLNCGHSFCRHCLALWWASSKKTECPECREKWEGFPKVS
B6: TRIM41 RING domain (UniProt Q8WV44); chain PVQTLQEEAVCAICLDYFTDPVSIGCGHNFCRVCVTQLWGGEDEEDRDELDREEEEEDGEEE
Molecule | lacZ reporter activity
ASPKIFQKTKCSICNSALELPSVHFLCGHSFHQHCFESYSESDADCPTCLPENRKVMDMI (VPS11 RING domain (UniProt Q9H270)) | 0
B1 (RNF182 RING domain) | 0
B2 (HLTF RING domain) | 0
FDPPLESKYECPICLMALREAVQTPCGHRFCKACIIKSIRDAGHKCPVDNEILLENQLFP (TRAF6 RING domain (UniProt Q9Y4K3)) | 0
LVKDFNPYITCYICKGYLIKPTTVTECLHTFCKTCIVQHFEDSNDCPRCGNQVHETNPLE (PCGF5 RING domain (UniProt Q86SE9)) | 0
B3 (ARIH2 RING domain) | 0
EIKEYKARLTCPCCNTRKKDAVLTKCFHVFCFECVRGRYEARQRKCPKCNAAFGAHDFHR (RNF40 RING domain (UniProt O75150)) | 0
B4 (ZMYND11 RING domain) | 0
DDVLTKDAGECVICLEELLQGDTIARLPCLCIYHKSCIDSWFEVNRSCPEHPAD (ZNRF1 RING domain (UniProt Q8ND25)) | 0
B5 (BFAR RING domain) | 0
B6 (TRIM41 RING domain) | 0

Set 3
Target: ABI1, truncated, D143A, DHFR fusion (Arabidopsis thaliana)
Technique: DHFR PCA, deep sequencing
Medium: yeast
Notes: methotrexate growth selection, single substitutions
Added: (+)-ABA 0 µM
Relative to: wild-type fitted maximum
Direction: higher = stronger binding
Starting sequence: PYL1, truncated, DHFR fusion (Arabidopsis thaliana); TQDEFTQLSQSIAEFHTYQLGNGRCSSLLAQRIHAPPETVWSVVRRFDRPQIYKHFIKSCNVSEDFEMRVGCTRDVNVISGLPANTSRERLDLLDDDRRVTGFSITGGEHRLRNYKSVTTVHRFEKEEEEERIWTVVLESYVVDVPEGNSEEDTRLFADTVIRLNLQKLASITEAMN; partner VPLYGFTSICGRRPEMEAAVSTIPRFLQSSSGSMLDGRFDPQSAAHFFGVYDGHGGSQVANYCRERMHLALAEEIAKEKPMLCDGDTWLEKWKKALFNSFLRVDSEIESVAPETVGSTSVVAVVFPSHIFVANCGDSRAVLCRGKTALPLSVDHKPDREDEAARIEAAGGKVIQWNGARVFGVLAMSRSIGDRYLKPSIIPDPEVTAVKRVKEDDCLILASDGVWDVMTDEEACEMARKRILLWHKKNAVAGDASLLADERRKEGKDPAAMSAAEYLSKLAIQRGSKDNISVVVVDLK
Variant | relative binding score [%]
S171Y | 7.91
V44S | 0.468
T154A | 1.57
R98W | 9.12
R69E | 19.6
R49D | -2.25
I162C | 11.9
H16W | 0.385
H55W | 39.3
I12E | 1.6
R99V | -2.23
A30P | 1.37
A175Q | 29
M176D | 9.99
S140I | -3.43

Set 4
Target: PABPC1L2, full length, GST fusion (mouse, UniProt A0ABA7IW68)
Technique: RNAcompete
Form: RNA
Medium: in vitro
Concentration: 20 nM
Notes: 7-mer, probes averaged, single round
Relative to: mean of 7-mers
Direction: higher = stronger binding
Target sequence (chain): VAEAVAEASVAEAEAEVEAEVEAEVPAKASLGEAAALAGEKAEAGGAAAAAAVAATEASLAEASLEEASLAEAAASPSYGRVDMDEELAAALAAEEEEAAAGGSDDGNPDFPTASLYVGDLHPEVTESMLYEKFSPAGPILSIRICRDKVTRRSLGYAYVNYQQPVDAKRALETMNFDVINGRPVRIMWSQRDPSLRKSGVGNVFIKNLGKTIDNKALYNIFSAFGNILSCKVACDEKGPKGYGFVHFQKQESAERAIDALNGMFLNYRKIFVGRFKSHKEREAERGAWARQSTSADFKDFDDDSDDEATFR
Strand | 7-mer Z-score
AAUAUGG | 0.753
CUUAGCA | -0.293
CACCGAG | -0.012
CAAAGAU | 0.811
GUCUAAG | -0.199
UGAAGUA | -0.155
UCGCUGU | -0.492
GUGCUCA | -0.233
GAAUCGC | -0.206
AAGUGAC | 0.303
ACAGAUA | 0.0787
CAAAUUG | 0.269
CGGACAU | 0.0261
GUCCAGU | -0.318
GGGCCCA | -0.0391
CUGGGAG | 0.0515
AGUCAGA | -0.188
GUUAUUG | -0.209
GAAACCG | 0.0189
CUGCCAC | -0.168
UGGUGGA | 0.0605
CGUUAUA | -0.278
CGUCGUA | -0.49
UGCCCAC | -0.262
AACCUUC | -0.249

Single results of other studies
Technique: cross-linking MS
Molecule | partner | system | conditions | endpoint | value
DNAH6 (Homo sapiens, UniProt Q9C0G6) | CAPN11 (Homo sapiens, UniProt Q9UMQ6) | cell fractions | added: DMTMM | cross-linked residues | K2952 to E507
NSMCE1 (Homo sapiens, UniProt Q8WV22) | NSMCE3 (Homo sapiens, UniProt Q96MG7) | – | hits only | interaction screen | cross-linked
SNW1 (Homo sapiens, UniProt Q13573) | SNRNP40 (Homo sapiens, UniProt Q96DI7) | cell fractions | added: DSSO | cross-linked residues | K170 to K349
NDUFS2 (Homo sapiens, UniProt O75306) | NDUFA10 (Homo sapiens, UniProt O95299) | cell fractions | added: DSSO | cross-linked residues | K437 to K277
